Measured values collected from several papers.
“And” joins repeats or separate records; there may be more than shown.
Target: Amine oxidase [flavin-containing] B (MAOB, Homo sapiens, UniProt P27338)
UniProt P27338, sequence (whole entry, looked up): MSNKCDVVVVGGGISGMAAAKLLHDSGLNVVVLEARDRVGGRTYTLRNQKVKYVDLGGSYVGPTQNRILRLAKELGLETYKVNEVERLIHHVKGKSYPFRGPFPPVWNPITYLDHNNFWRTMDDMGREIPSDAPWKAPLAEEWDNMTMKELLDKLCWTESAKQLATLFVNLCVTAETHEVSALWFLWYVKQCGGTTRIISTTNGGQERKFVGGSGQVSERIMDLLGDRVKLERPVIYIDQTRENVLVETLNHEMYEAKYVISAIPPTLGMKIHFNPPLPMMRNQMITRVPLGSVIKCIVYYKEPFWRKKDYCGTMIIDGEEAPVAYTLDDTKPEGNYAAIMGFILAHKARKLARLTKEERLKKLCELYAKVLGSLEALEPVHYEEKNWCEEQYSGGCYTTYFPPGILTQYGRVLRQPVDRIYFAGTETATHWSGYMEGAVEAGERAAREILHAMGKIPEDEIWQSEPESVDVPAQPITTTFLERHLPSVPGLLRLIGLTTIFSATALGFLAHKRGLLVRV
Mode: inhibitor

SMILES = COc1cc2c(c(OC)c1OC)C(=O)c1c(cc(C)c(OC3OC(CO)C(O)C(O)C3O)c1OC)C2=O (stereo not drawn); effect on = enzyme activity; IC50 = > 400 µM
SMILES = COc1cc(OC)c2c(c1)C(O)(c1cc(C)cc(OC)c1OC)NC2=O (racemic); time = 20 min; pH = pH 7.4; temperature = 37 °C; added = kynuramine 30 µM; IC50 = > 100 µM
SMILES = Cc1cc(O)c2c(c1)C(=O)c1cccc(OC3OC(COC4OC(CO)C(O)C(OC5OC(CO)C(O)C(O)C5O)C4O)C(O)C(O)C3O)c1C2=O (stereo not drawn); effect on = enzyme activity; IC50 = > 400 µM
SMILES = O=C1Nc2ccc(Cl)cc2/C1=N/N=C/c1ccc(OCc2ccccc2)cc1; effect on = enzyme activity; IC50 = 9.76 µM
SMILES = COc1cc(OC)c2c(c1)C(OC)(c1cc(C)cc(OC)c1OC)OC2=O (racemic); effect on = enzyme activity; method = fluorescence; pH = pH 7.4; IC50 = 38.9 µM
SMILES = COc1cc(/C=C/C(=O)O)cc(OC)c1O; effect on = enzyme activity; method = fluorescence; IC50 = 32.8 µM
SMILES = O=C(/C=C/c1ccc2c(c1)OCCO2)c1ccc(Cl)s1; effect on = enzyme activity; method = fluorescence; IC50 = 0.11 µM
SMILES = COc1ccc2c(c1)/C(=N/N=C/c1ccc(OCc3cccc(F)c3)cc1)C(=O)N2; effect on = enzyme activity; IC50 = 8.99 µM
SMILES = O=C(/C=C/c1ccc2c(c1)OCCO2)c1ccc(Br)s1; effect on = enzyme activity; method = fluorescence; IC50 = 0.12 µM
SMILES = C/C(=N\NC(=O)c1cccc(S(=O)(=O)N2CCOCC2)c1)c1cc(Cl)ccc1O; effect on = enzyme activity; IC50 = > 100 µM
SMILES = COc1ccc2c(c1)/C(=N/N=C/c1cccc(OCc3ccccc3)c1)C(=O)N2; effect on = enzyme activity; IC50 = 12.1 µM
SMILES = COc1cc(/C=C/C(=O)O)ccc1O; effect on = enzyme activity; method = fluorescence; IC50 = 26.9 µM
SMILES = COc1cc(O)c2c(c1)C(c1cc(C)cc(OC)c1OC)NC2=O (racemic); effect on = enzyme activity; method = fluorescence; pH = pH 7.4; IC50 = < 20 µM and 15.8 µM
SMILES = CCC/C=C1\OC(=O)C2=C1CC[C@H](O)[C@H]2O; effect on = enzyme activity; method = fluorescence; IC50 = 302 µM
SMILES = Cc1ccc2c(c1)/C(=N/N=C/c1ccc(OCc3ccccc3)cc1)C(=O)N2; effect on = enzyme activity; IC50 = 6.56 µM
SMILES = COc1cc(OC)c2c(c1)C(c1cc(C)cc(OC)c1OC)NC2=O (racemic); time = 20 min; pH = pH 7.4; temperature = 37 °C; added = kynuramine 30 µM; IC50 = > 100 µM
SMILES = O=C1Nc2ccc(Br)cc2/C1=N/N=C/c1ccc(OCc2ccccc2)cc1; effect on = enzyme activity; IC50 = 14.2 µM
SMILES = COc1c(OC2OC(CO)C(O)C(O)C2O)cc2c(c1O)C(=O)c1c(cc(C)c(O)c1OC)C2=O (stereo not drawn); effect on = enzyme activity; IC50 = 181 µM

Excerpt of the above:
SMILES = COc1cc(OC)c2c(c1)C(c1cc(C)cc(OC)c1OC)NC2=O (racemic); time = 20 min; pH = pH 7.4; temperature = 37 °C; added = kynuramine 30 µM; IC50 = > 100 µM
SMILES = COc1cc(OC)c2c(c1)C(OC)(c1cc(C)cc(OC)c1OC)OC2=O (racemic); effect on = enzyme activity; method = fluorescence; pH = pH 7.4; IC50 = 38.9 µM
SMILES = O=C1Nc2ccc(Br)cc2/C1=N/N=C/c1ccc(OCc2ccccc2)cc1; effect on = enzyme activity; IC50 = 14.2 µM
